Results of several laboratories.
Cell line: MDA-MB-231

| SMILES | assay | system | setting | scale | quantity | value |
| --- | --- | --- | --- | --- | --- | --- |
| CC(=O)c1cccc(NC2C(N)C(NC(=O)N(C)C)(C(C)OC(=O)C(C)(C)C)C(C)(O)C2(O)COC(=O)C(C)(C)C)c1 (stereo not shown) | cell growth or viability |  |  |  | EC50 | 2.44 µM |
| OCc1ccc(-c2cc(C(F)(F)F)cc(C(F)(F)F)c2)o1 | cell growth or viability, MTT |  | 100 µM, 48 h |  | inhibition | 94.8% |
| COc1cc(Cc2c[nH]c3ncc(C(F)(F)F)cc23)cc(OC)c1 | cell growth or viability |  | 10 µM, 72 h |  | inhibition | 22% |
| C=CC(OC(C)=O)c1cc(OC)c(OC(C)=O)c(OC)c1 (stereo not shown) | Western blot |  | IC50, 24 h | baseline: untreated | Bcl-2 protein decrease | 40 to 50% |
| Cc1nc2ccc(Cc3c[nH]c4ncc(C(F)(F)F)cc34)cc2o1 | cell growth or viability |  | 10 µM, 72 h |  | inhibition | 9% |
| CC/C=C\C/C=C\C/C=C\C/C=C\C/C=C\C/C=C\CCC(=O)Nc1ccn(C2OC(CO)C(O)C2(F)F)c(=O)n1 (stereo not shown) | NCI-60 screen |  |  |  | GI50 | 6.82 µM |
| CC1(C)C(=CC=C2C[N+](C)(C)CC(C=CC3=[N+](CCCCCC(=O)O)c4ccccc4C3(C)C)=C2c2ccccc2)N(CCCCCC(=O)O)c2ccccc21 |  |  | serum-free medium, together with: BSP 250 µM |  | cellular uptake | increased |
| CCCCCCCCCCCCCCCOC(=O)/C=C/c1cccc(O)c1 | AO-PI flow cytometry |  | IC50, 24 h |  | late apoptotic cells | 27.6% |
| N=C(N)NCCC[C@H](NC(=O)[C@H](Cc1c[nH]c2ccccc12)NC(=O)[C@H](CCC(N)=O)NC(=O)[C@H](Cc1c[nH]c2ccccc12)NC(=O)[C@H](CCCNC(=N)N)NC(=O)[C@H](Cc1c[nH]c2ccccc12)NC(=O)[C@H](CCC(N)=O)NC(=O)[C@@H](N)Cc1c[nH]c2ccccc12)C(N)=O |  |  |  | baseline: erythrocyte IC50 over MDA-MB-231 IC50 | selectivity ratio | > 1 |
| CN[C@@H](C)C(=O)N[C@H]1CN(C(=O)Cc2ccccc2)CC[C@H]2CC[C@@H](C(=O)NCc3ccc(C(F)(F)F)cc3)N2C1=O | caspase-8, caspase-3, PARP cleavage, western blot |  | 24 h |  | onset concentration | ≥ 1 µM |
| FC(F)(F)c1cnc2[nH]cc(Cc3ccc(Cl)c(C(F)(F)F)c3)c2c1 | cell growth or viability |  | 10 µM, 72 h |  | inhibition | 19% |
| CC1OC2OC3C4=C(OC3(C)C12O)C(=O)c1c(O)cccc1C4=O (stereo not shown) | annexin V/PI flow cytometry |  | 8 µg/mL, 48 h |  | late apoptotic cells | 19.2% |
| C=C[C@H](OC(C)=O)c1ccc(OC(C)=O)cc1 | Western blot, refers to: phospho-Akt/Akt |  | concentration not given, 24 h |  | phospho-Akt reduction | 70 to 94% |
| O=C(Cc1ccccc1)Nc1nc2ccccc2n1Cc1ccccc1 | inhibitor, western blot |  | concentration not given, hypoxia 1% oxygen |  | HIF-1α accumulation | no inhibition |
| C[C@@H]1O[C@@H](OC(=O)/C=C/c2ccc(O)cc2)[C@H](OC(=O)/C=C/c2ccc(O)cc2)[C@H](O)[C@H]1O | wound healing |  | 10 µM, 24 h, together with: HGF |  | cell migration | decreased |
| CC(=O)O[C@H]1C(=O)[C@]2(C)[C@@H](OC(=O)[C@H](N)CSC3CC(=O)N(CCC(=O)Nc4ccc(-c5ccc(/N=N/c6ccc7c(S(=O)(=O)O)cc(S(=O)(=O)O)c(N)c7c6O)c(C)c5)cc4C)C3=O)C[C@H]3OC[C@@]3(OC(C)=O)[C@H]2[C@H](OC(=O)c2ccccc2)[C@]2(O)C[C@H](OC(=O)[C@H](O)[C@@H](NC(=O)c3ccccc3)c3ccccc3)C(C)=C1C2(C)C (stereo partly shown) | annexin V/PI flow cytometry |  | concentration not given, 24 h |  | early apoptotic cells | 44.7% |
| CCCCCCCCCCCCCCCOC(=O)/C=C/c1cc(O)c(O)c(OC)c1 |  |  | concentration not given, 24 h | baseline: untreated | caspase-3 activity | 90 % increase |
| N=C(N)NCCC[C@H](NC(=O)[C@H](Cc1c[nH]c2ccccc12)NC(=O)[C@H](CCC(N)=O)NC(=O)[C@@H](N)Cc1c[nH]c2ccccc12)C(=O)N[C@@H](Cc1c[nH]c2ccccc12)C(=O)N[C@@H](CCC(N)=O)C(=O)N[C@@H](Cc1c[nH]c2ccccc12)C(N)=O |  |  |  | baseline: fibroblast IC50 over MDA-MB-231 IC50 | selectivity ratio | 0.3 |
| CC(=O)O[C@H]1C2=C(C(=O)C(O)=C(C(C)C)C2=O)[C@@]2(C)CCCC(C)(C)[C@@H]2[C@@H]1O | cell growth or viability, SRB |  | 48 h |  | GI50 | > 100 µM |
| Nc1cc(-c2cc(-c3ccccc3)c(C(F)(F)F)s2)n[nH]1 | cell growth or viability, MTT |  | 100 µM, 48 h |  | inhibition | 99.2% |
| CC1(C)C(=CC=C2CCCC(C=CC3=[N+](CCCCCC(=O)O)c4ccccc4C3(C)C)=C2c2ccccc2)N(CCCCCC(=O)O)c2ccccc21 | flow cytometry | serum-free medium | 20 µM, together with: 250 µM bromosulfophthalein pre-block |  | uptake decrease | 40 to 50% |
| C/C(=N\N(c1ccccc1)c1ccccc1)c1ccc(O)cc1 | Western blot |  | concentration not given, 48 h, together with: estradiol 1 nM |  | CDK2 protein level | decreased |

| SMILES | assay | system | setting | scale | quantity | value |
| --- | --- | --- | --- | --- | --- | --- |
| C=C1C(=O)OC2CC3=C[C@@H](C/C(C)=C/C(OC(=O)Cc4cccc5ccccc45)[C@H]12)OC3=O (stereo partly shown) | Boyden chamber |  | 1.25 µM, 24 h | baseline: vehicle | migration inhibition | 10% |
| FC(F)(F)c1cnc2[nH]cc(Cc3cccc(Oc4ccccc4)c3)c2c1 | cell growth or viability |  | 10 µM, 72 h |  | inhibition | 16% |
| [Ru+2].c1ccc(-c2ccc3c(n2)c2ncccc2c2nc4cc5ccccc5cc4nc32)nc1.c1ccc(-c2ccc3c(n2)c2ncccc2c2nc4cc5ccccc5cc4nc32)nc1 | cell viability, MTT |  | 1 h exposure, blue light 20 min, 56 J/cm^2, read 72 h |  | EC50 | > 25 µM |
| CC(Cc1ccc(Cl)cc1)=C(c1ccc(Cl)cc1)c1ccc(OCCN(C)C)cc1 |  |  |  |  | GI50 | 4.27 µM |
| CCC(C(=O)O)C1CCC(C)C(C(C)C(O)C(C)C(=O)C(CC)C2OC3(C=CC(=O)C4(CCC(C)(C5CCC(O)(CC)C(C)O5)O4)O3)C(C)CC2C)O1 (stereo not shown) | MTT |  | together with: benzhydroxamic acid 284.0 µM |  | combination index | 2.7 |
| CCCCCCCCCCCCCC(=O)N1CCC[C@H]1C(=O)N[C@@H](CO)C(=O)N[C@@H](CCC(N)=O)C(=O)N[C@@H](CO)C(=O)N[C@@H](CO)C(=O)N[C@@H](CO)C(=O)N[C@@H](CCC(=O)O)C(=O)N[C@@H](C)C(=O)O | annexin V/PI flow cytometry |  | 200 µM, 48 h |  | apoptotic cells | 35% |
| N=C(N)NCCC[C@H](NC(=O)[C@H](Cc1c[nH]c2ccccc12)NC(=O)[C@H](CCC(N)=O)NC(=O)[C@H](Cc1c[nH]c2ccccc12)NC(=O)[C@H](CCCNC(=N)N)NC(=O)[C@H](Cc1c[nH]c2ccccc12)NC(=O)[C@H](CCC(N)=O)NC(=O)[C@H](Cc1c[nH]c2ccccc12)NC(=O)[C@@H](N)CCCNC(=N)N)C(N)=O |  |  |  | baseline: MCF-12 IC50 over MDA-MB-231 IC50 | selectivity ratio | > 1.3 |
| C=CC(OC(C)=O)c1ccccc1 (stereo not shown) | cell growth or viability, MTT |  |  |  | IC20 | 31 µM |
| FC(F)(F)c1cccc(Cc2c[nH]c3ncc(C(F)(F)F)cc23)c1 | cell growth or viability |  | 10 µM, 72 h |  | inhibition | 29% |
| COc1ccc(C=CC(=O)c2cccc(O)c2)cc1 | flow cytometry PI |  | 50 µM, 48 h |  | S phase cells | 30.5% |
| C=CC(OC(C)=O)c1ccc(OC)cc1 (stereo not shown) | cell growth or viability, MTT |  |  |  | IC20 | 45 µM |
| C[C@H]1O[C@@H]2C3=C(O[C@]2(C)[C@@]1(O)C=O)C(=O)c1c(O)cccc1C3=O | cell growth or viability, MTT |  | 48 h |  | EC50 | 2.59 µg/mL |
| CC(=O)c1cccc(NC2C(N)C(NC(=O)N(C)C)(C(C)O)C(O)C2(O)COC(=O)c2c(C)cccc2O)c1 (stereo not shown) | cytotoxicity |  | free compound |  | EC50 | 0.05 µM |
| C=CC(OC(C)=O)c1ccc(OC(C)=O)c(OC)c1 (stereo not shown) | Western blot |  | IC50, 24 h | baseline: untreated | Bax protein level | 9.4 fold |
| N=C(N)NCCC[C@H](NC(=O)[C@H](Cc1c[nH]c2ccccc12)NC(=O)[C@H](CCC(N)=O)NC(=O)[C@H](Cc1c[nH]c2ccccc12)NC(=O)[C@@H](N)CCCNC(=N)N)C(=O)N[C@@H](Cc1c[nH]c2ccccc12)C(=O)N[C@@H](CCC(N)=O)C(=O)N[C@@H](Cc1c[nH]c2ccccc12)C(N)=O |  |  |  | baseline: fibroblast IC50 over MDA-MB-231 IC50 | selectivity ratio | 1 |
| Cc1ccc(C(C)C)cc1.O=C(N=P(c1ccccc1)(c1ccccc1)c1ccccc1)c1ccccn1.[Cl-].[Cl-].[Ru+2] | MTT |  |  | baseline: IC50 RPTC over IC50 MDA-MB-231 | selectivity ratio | 5.3 fold |
| CCC(=C(c1ccc(O)cc1)c1ccc(Cl)cc1)c1ccc(OC)cc1 |  |  |  |  | GI50 | 1.3 µM |
| Clc1ccc2ccc3[n+](c2c1)[Ir-3]12([c]4ccccc4-3)([c]3ccccc3-c3ccc4ccc(Cl)cc4[n+]31)[n+]1ccccc1-c1cccc[n+]12.F[P-](F)(F)(F)(F)F | qPCR, refers to: Mcl-1 |  | 3 µM |  | mRNA level | inhibited |
| CC(=O)N[C@@H](Cc1ccc(O)cc1)CN(CC(=O)N[C@@H](CCCCN)CN(CC(=O)N[C@@H](Cc1ccccc1)CN(CC(=O)N[C@H]1CCCCNc2c(F)c(F)c(c(F)c2F)S(=O)(=O)c2c(F)c(F)c(c(F)c2F)NCCCC[C@@H](CN(CC(=O)N[C@@H](C)CN(CC(N)=O)S(C)(=O)=O)S(C)(=O)=O)NC(=O)CN(S(=O)(=O)CC(C)C)C[C@H](CC(C)C)NC(=O)CN(S(=O)(=O)CCN)C1)S(=O)(=O)CC(C)C)S(=O)(=O)CCN)S(C)(=O)=O | cell growth or viability, CCK-8 |  | 72 h |  | GI50 | 4.59 µM |
| OC(c1cc(F)ccc1F)c1c[nH]c2ncc(C(F)(F)F)cc12 (stereo not shown) | cell growth or viability |  | 10 µM, 72 h |  | inhibition | 21% |
| Cc1ccc(C(C)C)cc1.O=C(N=P(c1ccccc1)(c1ccccc1)c1ccccc1)c1ccccn1.[Cl-].[Cl][Ru+] | PI flow cytometry |  | IC20, 24 h |  | G2/M cells | 24% |

A few entries again:
| SMILES | assay | system | setting | scale | quantity | value |
| --- | --- | --- | --- | --- | --- | --- |
| CC(Cc1ccc(Cl)cc1)=C(c1ccc(Cl)cc1)c1ccc(OCCN(C)C)cc1 |  |  |  |  | GI50 | 4.27 µM |
| CCC(C(=O)O)C1CCC(C)C(C(C)C(O)C(C)C(=O)C(CC)C2OC3(C=CC(=O)C4(CCC(C)(C5CCC(O)(CC)C(C)O5)O4)O3)C(C)CC2C)O1 (stereo not shown) | MTT |  | together with: benzhydroxamic acid 284.0 µM |  | combination index | 2.7 |
| CCCCCCCCCCCCCC(=O)N1CCC[C@H]1C(=O)N[C@@H](CO)C(=O)N[C@@H](CCC(N)=O)C(=O)N[C@@H](CO)C(=O)N[C@@H](CO)C(=O)N[C@@H](CO)C(=O)N[C@@H](CCC(=O)O)C(=O)N[C@@H](C)C(=O)O | annexin V/PI flow cytometry |  | 200 µM, 48 h |  | apoptotic cells | 35% |
| N=C(N)NCCC[C@H](NC(=O)[C@H](Cc1c[nH]c2ccccc12)NC(=O)[C@H](CCC(N)=O)NC(=O)[C@H](Cc1c[nH]c2ccccc12)NC(=O)[C@H](CCCNC(=N)N)NC(=O)[C@H](Cc1c[nH]c2ccccc12)NC(=O)[C@H](CCC(N)=O)NC(=O)[C@H](Cc1c[nH]c2ccccc12)NC(=O)[C@@H](N)CCCNC(=N)N)C(N)=O |  |  |  | baseline: MCF-12 IC50 over MDA-MB-231 IC50 | selectivity ratio | > 1.3 |
| C=CC(OC(C)=O)c1ccccc1 (stereo not shown) | cell growth or viability, MTT |  |  |  | IC20 | 31 µM |
| FC(F)(F)c1cccc(Cc2c[nH]c3ncc(C(F)(F)F)cc23)c1 | cell growth or viability |  | 10 µM, 72 h |  | inhibition | 29% |
